Published values pooled from the literature.
A part holds a random share of what one study measured.

Series 1 — technique: protein-binding microarray; form: double-stranded DNA, one strand shown; sample: in vitro; tested at: not given; direction: higher = stronger binding
Target: Transcriptional repressor CTCF (CTCF, Homo sapiens, UniProt P49711, residues 1-727, full length assumed)
Chain of UniProt P49711 (whole entry, looked up): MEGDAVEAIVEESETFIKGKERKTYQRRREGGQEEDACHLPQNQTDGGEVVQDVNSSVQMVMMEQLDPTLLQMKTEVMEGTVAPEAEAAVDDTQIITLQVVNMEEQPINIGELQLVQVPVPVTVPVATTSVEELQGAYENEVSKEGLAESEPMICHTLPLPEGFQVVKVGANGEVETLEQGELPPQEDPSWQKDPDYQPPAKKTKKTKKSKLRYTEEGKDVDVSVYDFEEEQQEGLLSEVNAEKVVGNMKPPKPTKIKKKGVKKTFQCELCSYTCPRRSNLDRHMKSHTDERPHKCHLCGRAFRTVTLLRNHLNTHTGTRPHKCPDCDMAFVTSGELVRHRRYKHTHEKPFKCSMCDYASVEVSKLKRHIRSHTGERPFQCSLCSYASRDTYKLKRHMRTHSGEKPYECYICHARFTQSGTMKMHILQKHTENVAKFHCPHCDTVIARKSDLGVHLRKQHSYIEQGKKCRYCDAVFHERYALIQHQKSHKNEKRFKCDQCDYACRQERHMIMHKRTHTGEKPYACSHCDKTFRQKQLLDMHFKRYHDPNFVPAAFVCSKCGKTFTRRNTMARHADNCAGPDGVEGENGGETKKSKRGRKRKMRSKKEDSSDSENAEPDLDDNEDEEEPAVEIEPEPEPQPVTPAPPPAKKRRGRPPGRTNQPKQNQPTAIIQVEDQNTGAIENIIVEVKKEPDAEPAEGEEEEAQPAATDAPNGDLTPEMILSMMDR
Notes: k-mer, scored over probes, only values ≥0.25
Oligonucleotide | E-score
ACGGCGCA | 0.282
GGCGCCAC | 0.273
GCGCAAAA | 0.417

Series 2 — technique: universal PBM; form: double-stranded DNA, one strand shown; sample: in vitro; tested at: 600 nM; direction: higher = stronger binding
Target: Sal-like protein 4, full length isoform A (SALL4, Homo sapiens, UniProt Q9UJQ4, residues 1-1053)
Chain of UniProt Q9UJQ4 (whole entry, looked up): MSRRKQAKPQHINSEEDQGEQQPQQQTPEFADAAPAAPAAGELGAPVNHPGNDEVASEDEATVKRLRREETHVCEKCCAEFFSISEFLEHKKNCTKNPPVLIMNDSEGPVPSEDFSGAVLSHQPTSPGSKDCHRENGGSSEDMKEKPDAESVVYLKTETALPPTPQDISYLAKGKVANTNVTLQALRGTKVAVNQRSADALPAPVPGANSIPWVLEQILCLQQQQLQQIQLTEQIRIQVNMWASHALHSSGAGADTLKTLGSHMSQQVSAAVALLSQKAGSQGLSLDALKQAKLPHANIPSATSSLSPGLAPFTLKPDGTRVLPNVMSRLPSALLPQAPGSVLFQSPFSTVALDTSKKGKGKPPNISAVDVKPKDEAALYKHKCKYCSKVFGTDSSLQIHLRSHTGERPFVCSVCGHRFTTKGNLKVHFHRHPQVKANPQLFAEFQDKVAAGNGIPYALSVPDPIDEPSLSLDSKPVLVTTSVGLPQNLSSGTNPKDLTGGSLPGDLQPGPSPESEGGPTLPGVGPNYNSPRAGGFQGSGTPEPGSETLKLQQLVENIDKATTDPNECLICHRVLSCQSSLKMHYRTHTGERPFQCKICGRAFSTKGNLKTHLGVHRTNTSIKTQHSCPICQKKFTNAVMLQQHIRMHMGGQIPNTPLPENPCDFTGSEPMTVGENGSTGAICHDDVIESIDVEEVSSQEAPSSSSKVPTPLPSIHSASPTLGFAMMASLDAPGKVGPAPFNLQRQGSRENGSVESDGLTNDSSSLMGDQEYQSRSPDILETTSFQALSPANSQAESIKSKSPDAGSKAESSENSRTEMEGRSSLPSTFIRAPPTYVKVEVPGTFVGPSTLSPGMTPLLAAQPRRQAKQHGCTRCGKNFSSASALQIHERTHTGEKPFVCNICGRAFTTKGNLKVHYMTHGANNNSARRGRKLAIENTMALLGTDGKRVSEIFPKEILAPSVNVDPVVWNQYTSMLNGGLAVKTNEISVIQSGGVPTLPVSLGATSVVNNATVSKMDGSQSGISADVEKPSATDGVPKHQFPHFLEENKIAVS
Notes: 8-mer, flanks averaged, mean of replicates
Oligonucleotide | E-score
GCTCGGTA | -0.107
CGTCACAG | 0.00686
GACGCAAA | -0.19
ATCATTCA | 0.267

Series 3 — technique: protein binding microarray; form: double-stranded DNA, one strand shown; sample: in vitro; tested at: not given; baseline: not given; direction: higher = stronger binding
Target: Histone acetyltransferase KAT6A, winged helix 2, GST fusion (KAT6A, Homo sapiens, UniProt Q92794, residues 85-181)
Notes: 8-mer, flanks averaged, mean of 2 arrays, mostly near background
Construct (chain): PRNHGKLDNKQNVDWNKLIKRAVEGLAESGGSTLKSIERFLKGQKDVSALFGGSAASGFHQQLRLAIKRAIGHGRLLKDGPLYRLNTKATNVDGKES
Oligonucleotide | E-score
AGGACCAC | -0.0943
ATATTGCA | -0.156
CAAGAGAC | -0.13
CTCATGCC | -0.053

Further values, each from its own experiment
Molecule | target | test | test system | setting | scale | endpoint | result
PhoQ, residues 284 288 289 292 302 303 MLMVEA | PhoP, residues 12 14 15 18 19 VQALL (Escherichia coli, UniProt P23836) | Sort-seq, measured: YFP reporter | E. coli | PhoQ-PhoP variant library, together with: 10 µM Mg2+ | baseline: high Mg2+ state, higher = stronger signaling | fold induction | 16.6

A few entries again (series 3):
Oligonucleotide | E-score
CTCATGCC | -0.053
ATATTGCA | -0.156
